{"data": "Experimental data gathered from unrelated publications", "note": "Compare with care: the assays were run in different laboratories. ± marks the error that the study gave."}
{"Compound": "NC(=O)N1c2ccccc2C=Cc2ccccc21", "organism": "Danio rerio", "test system": "zebrafish, male", "setting": "waterborne exposure, 1000 µg/L nominal, 7 d", "endpoint": "plasma concentration", "value": "4.28 µg/mL"}
{"Compound": "CC[C@H](C)[C@H](NC(=O)[C@H](Cc1c[nH]c2ccccc12)NC(=O)[C@H](CCC(=O)O)NC(=O)[C@H](CCCCN)NC(=O)[C@@H](NC(=O)[C@H](CCCCN)NC(=O)[C@@H](N)CC(N)=O)C(C)C)C(=O)N[C@@H](CCCCN)C(=O)N[C@@H](Cc1ccc(O)cc1)C(=O)N[C@@H](CC(C)C)C(=O)N[C@@H](CCCCN)C(=O)N[C@@H](CO)C(=O)N[C@@H](CC(C)C)C(=O)N[C@@H](Cc1ccccc1)C(=O)N[C@@H](CO)C(=O)N[C@H]1CCOC1=O", "organism": "Lacticaseibacillus casei", "test system": "ATCC 393, resting cell suspension", "setting": "200 µg/mL, 1 h, pH 7.0, 37 °C", "endpoint": "remaining peptide", "value": "0%"}
{"Compound": "Cc1cccc2c1ccc1cc(C(C)C)ccc12", "organism": "Danio rerio", "assay": "severe developmental teratogenicity", "test system": "embryo medium", "setting": "pH 7.2, 50% embryos affected DMSO 1%", "endpoint": "teratogenic concentration", "value": "16.5 µM"}
{"Compound": "CN(C)N=O", "organism": "Salmonella typhimurium, Escherichia coli", "assay": "preincubation Ames test", "setting": "concentration not given, with and without S9", "endpoint": "mutagenicity", "value": "positive"}
{"Compound": "COc1ccc(C(c2ccc(OC)cc2)C(Cl)(Cl)Cl)cc1", "organism": "Cyprinus carpio", "assay": "everted gut sac", "test system": "intestine", "setting": "concentration not given, 24 h, 23 °C", "endpoint": "concentration in serosal solution", "value": "140 ± 49 µg/mL"}
{"Compound": "CC[C@H](C)[C@@H](CC(=O)N[C@@H](CCC(=O)O)CC(=O)O)NC(=O)C[C@@H](NC(=O)C[C@H](CCCN)NC(=O)C[C@H](Cc1cccc(C(F)(F)F)c1)NC(=O)C[C@@H](NC(=O)C[C@H](CCC(=O)O)NC(=O)C[C@H](Cc1c[nH]c2ccccc12)NC(=O)C[C@@H](NC(=O)C[C@@H](N)CCCN)C(C)C)C(C)C)C(C)C", "organism": "HIV-1", "assay": "MTT", "test system": "MT2, IIIB", "setting": "5 days", "how to read": "relative to: CC50 over EC50", "endpoint": "selectivity index", "value": 8}
{"Compound": "O=C(NCCN1CCCC1)c1cc(-c2ccc(CN3CCOCC3)cc2)nc2ccc(F)cc12", "organism": "Plasmodium falciparum", "test system": "human, whole blood", "setting": "oral, 150 mg, malaria volunteer infection study", "endpoint": "AUC(0-t)", "value": "2.68 µg·h/mL"}
{"Compound": "C[C@H]1[C@@H](O)O[C@@H]2O[C@@]3(C)CC[C@H]4[C@H](C)CC[C@@H]1[C@@]24OO3", "organism": "Plasmodium falciparum", "test system": "Vero, K1 chloroquine-resistant", "how to read": "relative to: CC50 Vero over IC50 parasite", "endpoint": "selectivity ratio", "value": 921}
{"Compound": "c1ccc(-c2ccccc2-c2ccccc2)cc1", "organism": "Cyprinus carpio", "assay": "everted gut sac", "test system": "intestine", "setting": "concentration not given, 24 h, 23 °C", "endpoint": "concentration in serosal solution", "value": "305 ± 120 µg/mL"}
{"Compound": "CCCCCCOC(=O)NC(=N)c1ccc(N(Cc2nc3cc(C(=O)N(CCC(=O)OCC)c4ccccn4)ccc3n2C)N=O)cc1", "organism": "Salmonella typhimurium, Escherichia coli", "assay": "preincubation Ames test", "setting": "concentration not given, with and without S9", "endpoint": "mutagenicity", "value": "negative"}
{"Compound": "Nc1ncnc2c([C@@H]3N[C@H](CO)[C@@H](O)[C@H]3O)c[nH]c12", "organism": "Zika virus", "test system": "RD, PRVABC-59", "setting": "unit not given", "how to read": "relative to: CC50 over EC90", "endpoint": "SI90", "value": 10}
{"Compound": "CC(C)C[C@H](NC(=O)[C@@H](NC(=O)CNC(=O)[C@H](CCC(=O)O)NC(=O)[C@@H](N)CCCCN)C(C)C)C(=O)N[C@@H](Cc1ccc(O)cc1)C(=O)N[C@H](C(=O)NCC(=O)N[C@@H](Cc1c[nH]cn1)C(=O)N[C@@H](Cc1c[nH]cn1)C(=O)N[C@H](C(=O)N[C@@H](CCCCN)C(=O)O)[C@@H](C)O)C(C)C", "organism": "Salmonella typhimurium", "assay": "Ames test", "setting": "up to 150 µg/plate", "endpoint": "mutagenicity", "value": "negative"}
{"Compound": "CCOC(CN(CC(OCC)OCC)N=O)OCC", "organism": "Salmonella typhimurium, Escherichia coli", "assay": "preincubation Ames test", "setting": "concentration not given, with and without S9", "endpoint": "mutagenicity", "value": "positive"}
{"Compound": "CN(CCCC(=O)c1cccnc1)N=O", "organism": "Salmonella typhimurium", "test system": "TA98", "setting": "with: human lung microsomes 0.5 mg + NADPH", "how to read": "relative to: DMSO", "endpoint": "lowest mutagenic concentration", "value": "0.1 µM"}
{"Compound": "CCN(CC)N=O", "organism": "Salmonella typhimurium, Escherichia coli", "assay": "preincubation Ames test", "setting": "concentration not given, with and without S9", "endpoint": "mutagenicity", "value": "positive"}
{"Compound": "O=[N+]([O-])c1ccc(Oc2ccc(Cl)cc2Cl)cc1", "organism": "Cyprinus carpio", "assay": "everted gut sac", "test system": "intestine", "setting": "concentration not given, 24 h, 23 °C", "endpoint": "concentration in mucosal solution", "value": "50.4 ± 5.4 µg/mL"}
{"Compound": "O=NN1CC2CC(C1)c1cc3nccnc3cc12", "organism": "Salmonella typhimurium, Escherichia coli", "assay": "preincubation Ames test", "setting": "concentration not given, with and without S9", "endpoint": "mutagenicity", "value": "positive"}
{"Compound": "CCOc1ccc2c(c1)C(C)=CC(C)(C)N2", "organism": "Arenicola sp.", "test system": "spiked seawater with 0.01% acetone", "setting": "10 days", "endpoint": "LC50", "value": "1.93 mg/L"}
{"Compound": "CCN(CC)CCCC(C)Nc1ccnc2cc(Cl)ccc12 (centres unmarked)", "organism": "Plasmodium falciparum", "test system": "Vero, 3D7 chloroquine-sensitive", "how to read": "relative to: CC50 Vero over IC50 parasite", "endpoint": "selectivity ratio", "value": 23800}
{"Compound": "Nc1nc2ncc(CN(N=O)c3ccc(C(=O)NC(CCC(=O)O)C(=O)O)cc3)nc2c(=O)[nH]1 (centres unmarked)", "organism": "Salmonella typhimurium, Escherichia coli", "assay": "preincubation Ames test", "setting": "concentration not given, with and without S9", "endpoint": "mutagenicity", "value": "negative"}
{"note": "Excerpt of the above:"}
{"Compound": "O=[N+]([O-])c1ccc(Oc2ccc(Cl)cc2Cl)cc1", "organism": "Cyprinus carpio", "assay": "everted gut sac", "test system": "intestine", "setting": "concentration not given, 24 h, 23 °C", "endpoint": "concentration in mucosal solution", "value": "50.4 ± 5.4 µg/mL"}
{"Compound": "O=NN1CC2CC(C1)c1cc3nccnc3cc12", "organism": "Salmonella typhimurium, Escherichia coli", "assay": "preincubation Ames test", "setting": "concentration not given, with and without S9", "endpoint": "mutagenicity", "value": "positive"}
{"Compound": "CCOc1ccc2c(c1)C(C)=CC(C)(C)N2", "organism": "Arenicola sp.", "test system": "spiked seawater with 0.01% acetone", "setting": "10 days", "endpoint": "LC50", "value": "1.93 mg/L"}
